Assay results gathered from unrelated publications.
Protocols differ between the studies behind these lines. Several values in a cell are separate wells, animals, samples, runs or records. ± marks the error that the study gave.

COc1ccc(N2CCN(CC(O)COc3ccc4ccccc4c3)CC2)cc1 (stereo not drawn)  third-quartile larval motion (locomotor activity in dark; Danio rerio larvae, 7 dpf, well of 10 larvae; 10 µM, minute 1, dark): 4.5 ± 0.8 pixels/frame
COc1ccccc1-c1ccncc1C(=O)Nc1nnc(OCc2ccc(Cl)cc2)s1  colony count (Brca1 Δ11/Δ11 Polq-/- MEFs, mouse; 5 µM): 35 and 61 and 65
CO[C@H]1CCN(Cc2c(C)cc(C)c3[nH]ccc23)[C@H](CO)C1  IC50 (alternative pathway C3b deposition, inhibitor; 50% mouse serum): 1.3 ± 0.14 µM
CCOC(=O)NN  normalised absorbance (hydrazine ligation kinetics, absorbance; concentration not given, 40 s, added: 2-formylphenylboronic acid): 0.828
CN1CCC[C@]1(C)/C=C/S(=O)(=O)NC(=O)Nc1c2c(cc3c1CCC3)CCC2  IL-18 inhibition (human, whole blood ex vivo; 100 mg single dose, 24 h, single ascending dose, added: LPS and ATP): 133%
CC1Cc2ccccc2N1C(=O)CN1CCN(Cc2ccccc2)CC1 (stereo not drawn)  time in open area (zero maze; PC7-WT mice; 1 mg/kg; reference: vehicle): increased
COc1ccccc1C1CCN(CCC(=O)Nc2ccc(C)c(C)c2)CC1  third-quartile larval motion (locomotor activity in dark; Danio rerio larvae, 7 dpf, well of 10 larvae; 10 µM, minute 1, dark): 3.2 ± 0.9 pixels/frame
CCC(=O)N[C@@H](C)C(=O)OCC(=O)N[C@@H](C)C(=O)O  chain scission rate constant (water; pH 5, 25 °C): 0.0007 h⁻¹
COc1cc(O)ccc1CCC(c1ccc(O)cc1)c1cc2c(c(C)c1O)OC(c1ccc(O)cc1)CC2 (mixture of isomers)  amount (measured: 12-HEPE; human whole blood; 0.3 µM, added: A23187): 146 ± 42 pg/mL blood
COC1CN([C@H]2CC[C@H]([C@@]3(C)Oc4c(Cl)cc(C(=O)NCc5c(SC)cc(C)[nH]c5=O)c(C)c4O3)CC2)C1  log2 fold change (RNA-seq, measured: SEMA7A mouse homolog; mouse, HT-1376 xenograft, whole blood; dose not given; reference: vehicle): 1.49
O=C(NCC1OC2CCC=CCCC2O1)c1ccc(F)nc1 (stereo not drawn)  observed rate constant kobs (IEDDA cycloaddition, substrate, stopped-flow spectrophotometry; water/methanol 45:55; 1.5 mM, 298 K, added: 3,6-di(2-pyridyl)-tetrazine 0.05 mM): 494 ± 19.4 s⁻¹
CC(=O)[O-].O.O.O.O.[Mn+2].[O-]c1ccc(Br)cc1C=NCCN1CCOCC1  inhibition (nitric oxide scavenging; 40 µM): 10.8%
CCCCCCCCCCCCCCCC(=O)OCC(CSC[C@H](N)C(=O)N[C@@H](CO)C(=O)N[C@@H](CCCCN)C(=O)N[C@@H](CCCCN)C(=O)N[C@@H](CCCCN)C(=O)N[C@@H](CCCCN)C(=O)NCCCCCC(=O)N[C@@H](CCCCN)C(=O)N[C@@H](CC(C)C)C(=O)N[C@H](C(=O)N[C@@H](Cc1ccccc1)C(=O)N[C@@H](Cc1ccccc1)C(=O)N[C@@H](Cc1ccc2ccccc2c1)C(=O)O)C(C)C)OC(=O)CCCCCCCCCCCCCCC (stereo partly drawn)  Aβ plaque level (Thioflavin S staining; APP/PS1 transgenic mouse, cortex; local cortical injection, dose not given, unit not given; reference: injected over adjacent side): 0.465 and 0.537 and 0.486 and 0.69 and 0.53 and 0.735 and 0.614
CCOC(=O)CCCCC1NCCc2ccc(O)c(O)c21 (stereo not drawn)  IC50 (DPPH scavenging, absorbance; 30 min, dark): 7.64 µM
COc1ccc(NC(=O)c2ccc3[nH]c(-c4ccc(N(C)C)cc4)nc3c2)cn1  tumour volume (Lewis lung carcinoma, mice, syngeneic graft, subcutaneous; intraperitoneal, 25 mg/kg daily, day 7): 526 mm3 and 462 mm3 and 542 mm3 and 344 mm3 and 353 mm3
CC(CCC(=O)NCc1ccc(C(=O)NO)cc1)C1CCC2C3C(O)CC4CC(O)CCC4(C)C3CCC12C (stereo not drawn)  relative abundance (measured: Glyco-conj; PCK rat (Pkhd1 mutant), liver; oral gavage, dose not given, 5 months; reference: total bile acids): 20.9%
Nc1nc2cc(CC[C@H]3C[C@@H](n4ccc5c(N)ncnc54)[C@H](O)[C@@H]3O)ccc2cc1Br  tumour growth inhibition (mouse, NCI-H1048 xenograft; oral, 10 mg/kg, day 28, intermittent, qd x 28): 77.1%
Cc1cc(C)cc(NC(=O)CCN2CCCCCC2)c1  third-quartile larval motion (locomotor activity in dark; Danio rerio larvae, 7 dpf, well of 10 larvae; 10 µM, minute 1, dark): 10.8 ± 2.4 pixels/frame
CCOCc1ccc(O[C@@H]2O[C@@H](C)[C@H](O)[C@@H](O)[C@H]2O)cc1  radical scavenging (DPPH radical; 300 µg/mL): 5.06 ± 1.6%
NNC(=O)Cc1ccccc1  normalised absorbance (hydrazine ligation kinetics, absorbance; concentration not given, 10 s, added: 2-formylphenylboronic acid): 0.246
CC(C)(C)NCC(SS(=O)(=O)O)c1ccccc1 (stereo not drawn)  spleen weight (Swiss Webster mice, Schistosoma mansoni-infected; 100 mg/kg x 2 doses from day 42 post-infection, perfusion day 56 post-infection): 0.66 g
Cc1ccc(S(=O)(=O)NN)cc1  normalised absorbance (hydrazine ligation kinetics, absorbance; concentration not given, 40 s, added: 2-formylphenylboronic acid): 0.875
COCCNCCOc1cc(C)cc(C(C)C)c1  third-quartile larval motion (locomotor activity in dark; Danio rerio larvae, 7 dpf, well of 10 larvae; 10 µM, minute 1, dark): 7.3 ± 0.8 pixels/frame
CC[C@H](C)[C@@H](C(=O)N[C@@H](CC(C)C)C(=O)N[C@@H](CO)C(=O)N[C@@H](CO)C(=O)N[C@H](C(=O)N[C@@H](CCC(=O)O)C(=O)N[C@H](C(=O)NCC(=O)N[C@@H](CO)C(=O)NCC(=O)N[C@H](C(=O)N1C[C@H](O)C[C@H]1C(N)=O)[C@@H](C)O)C(C)C)[C@@H](C)O)N(C)C(=O)[C@H](C)NC(=O)CN(C)C(=O)[C@H](Cc1ccccc1)NC(=O)[C@H](CO)NC(=O)[C@H](CO)NC(=O)[C@H](CCCNC(=N)N)NC(=O)[C@H](CCC(N)=O)NC(=O)[C@H](CC(C)C)NC(=O)[C@H](Cc1ccccc1)NC(=O)[C@H](Cc1c[nH]cn1)NC(=O)[C@H](C)NC(=O)[C@H](CC(C)C)NC(=O)[C@H](CCCNC(=N)N)NC(=O)[C@H](CCC(N)=O)NC(=O)[C@@H](NC(=O)[C@H](C)NC(=O)[C@@H]1CSSC[C@H](NC(=O)[C@H](CCCNC(=N)N)NC(=O)CC[C@H](NC(=O)CCCCCCCCCCCCCCCCCCC(=O)O)C(=O)O)C(=O)N[C@@H](CC(N)=O)C(=O)N[C@@H]([C@@H](C)O)C(=O)N[C@@H](C)C(=O)N[C@@H]([C@@H](C)O)C(=O)N1)[C@@H](C)O  body weight loss (male Sprague-Dawley rats; subcutaneous, 30 nmol/kg single dose, 96 h): 5.8 ± 0.5%

Excerpt of the above:
Cc1ccc(S(=O)(=O)NN)cc1  normalised absorbance (hydrazine ligation kinetics, absorbance; concentration not given, 40 s, added: 2-formylphenylboronic acid): 0.875
